Measured values of several laboratories.
Protocols differ between the studies behind these lines. ± gives the spread as reported. In brackets after ≈: the same amount, converted by molar mass.

CCCCCCCC(=O)OC[C@H](NC(=O)[C@H](CO)NC(=O)CN)C(=O)N[C@@H](Cc1ccccc1)C(=O)N[C@@H](CC(C)C)C(=O)N[C@@H](CO)C(=O)N1CCC[C@H]1C(=O)N[C@@H](CCC(=O)O)C(=O)N[C@@H](Cc1cnc[nH]1)C(=O)N[C@@H](CCC(N)=O)C(=O)N[C@@H](CCCNC(=N)N)C(=O)N[C@H](C(=O)N[C@@H](CCC(N)=O)C(=O)N[C@@H](CCC(N)=O)C(=O)N[C@@H](CCCNC(=N)N)C(=O)N[C@@H](CCCCN)C(=O)N[C@@H](CCC(=O)O)C(=O)N[C@@H](CO)C(=O)N[C@@H](CCCCN)C(=O)N[C@@H](CCCCN)C(=O)N1CCC[C@H]1C(=O)N1CCC[C@H]1C(=O)N[C@@H](C)C(=O)N[C@@H](CCCCN)C(=O)N[C@@H](CC(C)C)C(=O)N[C@@H](CCC(N)=O)C(=O)N1CCC[C@H]1C(=O)N[C@@H](CCCNC(=N)N)C(=O)O)C(C)C
MRT (ELISA; healthy humans, both sexes, plasma; continuous intravenous infusion, 1 µg/kg/h, 65 min): 0.75 ± 0.05 h

CCN(CCCCOc1ccc(CCC(=O)N2CCC(Cc3ccccc3)CC2)cc1OC)Cc1ccccc1
body weight, mental state, movement (Kunming mice; oral gavage, 1500 mg/kg daily, 14 days): no effect

CN[C@](C)(C[18F])C(=O)O
tissue uptake (SCID mouse A549 xenograft, brain; 15 min, post injection): 0.4 ± 0.04 %ID/g

CC(C)[C@H](NC(=O)CNC(=O)[C@H](CCC(N)=O)NC(=O)[C@H](C)N)C(=O)O
drug-related adverse events (human; intravenous infusion, 15 mg/kg/h, 2 h, relatedness Possibly; reference: subjects): 0%

N=C(N)NCc1ccc(C(=O)NCCCC[C@H](NC(=O)N[C@@H](CCC(=O)O)C(=O)O)C(=O)O)cc1[131I]
tissue uptake (SCID mouse, PC-3 xenografts, liver; 4 h): 4.31 ± 3.08 %ID/g

CCCCCCCCCCCCCCCC(=O)OCC(CSC[C@H](N)C(=O)N[C@@H](CO)C(=O)N[C@@H](CCCCN)C(=O)N[C@@H](CCCCN)C(=O)N[C@@H](CCCCN)C(=O)N[C@@H](CCCCN)C(=O)NCCCCCC(=O)N[C@@H](CCCCN)C(=O)N[C@@H](CC(C)C)C(=O)N[C@H](C(=O)N[C@@H](Cc1ccccc1)C(=O)N[C@@H](Cc1ccccc1)C(=O)N[C@@H](Cc1ccc2ccccc2c1)C(=O)O)C(C)C)OC(=O)CCCCCCCCCCCCCCC (some centres unmarked)
serum creatinine (C57BL/6J mouse; intraperitoneal, 15 mg/kg twice): increased

CCNc1cc2[o+]c3cc(NCC)c(C)cc3c(-c3ccccc3C(=O)OCCOCC[18F])c2cc1C
tissue uptake (rat, muscle; 120 min): 0.14 ± 0.02 %ID/g

N=C(N)NCc1ccc(C(=O)NCCCC[C@H](NC(=O)CCCCCCC(=O)NCCCC[C@H](NC(=O)N[C@@H](CCC(=O)O)C(=O)O)C(=O)O)C(=O)O)cc1[131I]
tissue uptake (SCID mouse, PC-3 xenografts, muscle; 21 h): 0.03 ± 0.02 %ID/g

CC[C@H](C)C(=O)N1CCC(NC(=O)Nc2ccc(OC(F)(F)F)c(F)c2)CC1
AUC (human, plasma; oral, 24 mg, single dose, healthy volunteers): 6.13 µg·h/mL

O=P([O-])([O-])Oc1ccc(-c2cc(=S)ss2)cc1.[Na+].[Na+]
solubility (HPLC; PBS; 24 h, pH 7.4, 25 °C): 1.79 mg/mL

CC[C@H](C)[C@@H]1NC(=O)[C@H](CCCCN)NC(=O)[C@H](CCCCN)NC(=O)[C@H](Cc2ccc(O)cc2)NC(=O)[C@H](CC(C)C)NC(=O)[C@@H]2CCCN2C(=O)[C@H](C)NC(=O)CNC(=O)CNC(=O)[C@H](CO)NC(=O)CNC(=O)CNC(=O)[C@H](CO)NC(=O)[C@H](CCC(=O)O)NC(=O)[C@H](CC(C)C)NC(=O)[C@H](CC(C)C)NC(=O)[C@H](CCCCN)NC(=O)[C@H](CCCCN)NC(=O)[C@H]([C@@H](C)CC)NC(=O)[C@H]([C@@H](C)CC)NC(=O)[C@H](CCCCN)NC(=O)[C@H](CCCCN)NC(=O)[C@H](Cc2ccc(O)cc2)NC(=O)[C@H](CC(C)C)NC(=O)[C@@H]2CCCN2C(=O)[C@H](C)NC(=O)CNC(=O)CNC(=O)[C@H](CO)NC(=O)CNC(=O)CNC(=O)[C@H](CO)NC(=O)[C@H](CCC(=O)O)NC(=O)[C@H](CC(C)C)NC(=O)[C@H](CC(C)C)NC(=O)[C@H](CCCCN)NC(=O)[C@H](CCCCN)NC(=O)[C@H]([C@@H](C)CC)NC1=O
HC10 (hemolysis; uninfected human erythrocytes; 1 h): 92.7 ± 10.9 µM

Cc1ccc(/C=C/C(=O)O)cc1-c1cc2c(cc1C)C(C)(C)CCC2(C)C
blood triglycerides (Sprague-Dawley rat, male; oral, 100 mg/kg, 3 h, sesame oil vehicle): 146 ± 36.9 mg/dL

C/C=C/C=C/C/C=C/CCCCCCCc1cccc(O)c1O
tissue concentration (female Kunming mice, tumour-bearing, liver; intravenous, 10 mg/kg, 1 h): 31200 ± 3110 ng/g

COc1ccc(C)cc1NC(=O)OC1CC2CCCC(C1)N2Cc1ccc(CC[18F])cc1 (centres unmarked)
tumour to tissue ratio (BALB/c mice, EMT6 tumour; 5 min; reference: tumour over blood): 0.82

O=C(CP(c1ccccc1)c1ccccc1)[O][Ti+2][O]C(=O)CP(c1ccccc1)c1ccccc1.c1cc[cH-]c1.c1cc[cH-]c1
pH (DMSO/water 1:99; 5 x 10 µM): 5.52

CN(C(=O)Cc1ccc(Cl)c(Cl)c1)C(CN1CCCC1)c1ccccc1 (stereo in doubt)
intrinsic clearance (human liver microsomes): 2.2 mL/min/g

CN(C)C(CNC(=O)Nc1cc(C(F)(F)F)ccc1N1CCOCC1)c1ccncc1 (centres unmarked)
serum total CO2 (mouse, serum; intraperitoneal, 180 mg/kg single dose): 21 mmol/L

C[C@@H]1CC[C@H]2[C@@H](C)CO[C@@H]3O[C@@]4(C)CC[C@@H]1[C@]32OO4
stability accuracy (item: compound; rat, plasma; 50.0 ng/mL spiked, three freeze/thaw cycles): 112%

O=C(O)CCn1c(=O)oc2cc(Cl)c(Cl)cc21
plasma concentration (mouse, Kmo wild type, plasma; intravenous, 30 mg/kg, 1 h): 263 ± 98 µM

C=C1C(=O)O[C@@H]2C[C@H](C)[C@@H]3C[C@H](O[Si](C)(C)C(C)C)[C@H](O[Si](C)(C)C(C)C)[C@@]3(C)C[C@H]12
CC50 (propidium iodide flow cytometry; primary splenocytes, BALB/c mouse; 48 h, 10% fetal calf serum): 37.7 ± 0.5 mg/L (≈ 80.8 µM)

C#Cc1c(F)ccc2cc(O)cc(-c3ncc4c(N5CC6CCC(C5)N6C(=O)CC(C)CC(=O)OCC)nc(OC[C@@]56CCCN5C[C@H](F)C6)nc4c3F)c12 (some centres unmarked)
compound remaining (chemical stability; simulated intestinal fluid; 1 µM, 30 min): 110%

[2H]C([2H])([2H])C([2H])([2H])C([2H])([2H])OC(C(=O)OC1CCNCC1)(c1ccccc1)c1ccccc1
adverse drug reactions (item: creatine phosphokinase increased; healthy Japanese male; oral, 12 mg once daily, 16 days): 0%

CSCC[C@@H]1NC(=O)[C@@H]2CSSC[C@H](NC(=O)[C@H](CO)NC(=O)[C@H](C)N)C(=O)N[C@@H](CCCNC(=N)N)C(=O)N[C@@H]([C@@H](C)O)C(=O)N3CCC[C@H]3C(=O)N[C@@H](CCCCN)C(=O)N[C@@H](CC(=O)O)C(=O)N[C@H]3CSSC[C@H](NC(=O)[C@H](CCCCN)NC(=O)[C@H](CCCNC(=N)N)NC(=O)[C@H](CC(N)=O)NC1=O)C(=O)N[C@@H](CCCCN)C(=O)N[C@H]1CSSC[C@H](NC(=O)[C@@H]4CCCN4C(=O)[C@H](CC(=O)O)NC(=O)[C@H](C)NC3=O)C(=O)N[C@@H](C)C(=O)N[C@@H](CCCCN)C(=O)N[C@@H](CCC(=O)O)C(=O)N[C@@H]([C@@H](C)O)C(=O)NCC(=O)N[C@@H](CSSC[C@@H](C(N)=O)NC(=O)[C@H](CCCNC(=N)N)NC(=O)[C@H](CC(N)=O)NC1=O)C(=O)N1CCC[C@H]1C(=O)N[C@@H](Cc1ccc(O)cc1)C(=O)NCC(=O)N[C@@H](CCCCN)C(=O)N2
Phosphorus (DA rat pristane-induced arthritis, serum; subcutaneous, 0.1 mg/kg every other day, 21 days): 5.3 mg/dL

O=P1(NCCCl)NCCCO1 (centres unmarked)
MRT(0-inf) (rat, plasma; intravenous, 10 mg/kg CP, together with: ketoconazole 0 mg/kg): 4.13 ± 0.253 h

CN(C)C(=O)c1ncn2c(=O)n(C)nnc12
remaining compound (mouse CD-1 male, liver microsomes; 50 µM, 2 h, pH 7.4; reference: time zero): 81 ± 2%

C[C@@H](O)[C@H](NC(=O)[C@H](CCC(=O)O)NC(=O)[C@H](Cc1ccccc1)NC(=O)[C@H](Cc1c[nH]c2ccccc12)NC(=O)[C@H](CCCCN)NC(=O)[C@H](CCCCN)NC(=O)[C@H](CCCCN)NC(=S)Nc1ccc2c(c1)C(=O)OC21c2ccc(O)cc2Oc2cc(O)ccc21)C(=O)N[C@@H](Cc1c[nH]c2ccccc12)C(=O)N[C@@H](Cc1ccccc1)C(=O)N[C@H](C(=O)N[C@@H](CCC(=O)O)C(=O)N[C@@H](Cc1c[nH]c2ccccc12)C(=O)N1CCC[C@H]1C(=O)N[C@@H](CCCCN)C(=O)N[C@@H](CCCCN)C(=O)N[C@@H](CCCCN)C(=O)N[C@@H](CCCCN)C(=O)O)[C@@H](C)O
cumulative peptide release (gelatin hydrogel 100 mg/mL; 56.6 µg loaded, glutaraldehyde cross-linked, together with: PBS): 54.6 µg

CC(C)[C@H](NC(=O)CNC(=O)[C@H](CCC(N)=O)NC(=O)[C@H](C)N)C(=O)O
discontinuation due to AE (healthy male volunteers; intravenous, 90 mg/kg/h, 2 h, together with: LPS 2 ng/kg): 0%

CC[C@H](C)[C@H](NC(=O)[C@H](CC(C)C)NC(=O)[C@H]1CCCN1C(=O)[C@@H](CO)NC(=O)[C@H](N)CC(C)C)C(=O)N[C@@H](Cc1ccccc1)C(=O)N[C@H](C(=O)N[C@H](C(=O)N[C@H](C(=O)N1CCC[C@H]1C(=O)N[C@@H](CC(=O)O)C(=O)N[C@@H](C(=O)O)[C@H](C)O)[C@@H](C)O)[C@@H](C)O)C(C)C
CCR7+ T cell infiltration (flow cytometry; C57BL/6 mouse, footpad tumour, tumour and popliteal lymph nodes; dose not given): no effect

O=c1c2cc(Cl)ccc2sc2c(NCc3ccccc3)nc3ccccc3c12
body weight gain (BALB/c nude mice; i.p., 10 mg/kg): 4.79 ± 0.53%

CC(=O)[O-].F[P-](F)(F)(F)(F)F.[Co+2].c1ccc(CN2CCCN3CCN(CCCN(Cc4ccccc4)CC3)CC2)cc1
E1/2 (cyclic voltammetry, item: second Co2+/Co3+ couple; acetonitrile; reference: SHE): 0.648 V

O=C(O)CC[C@H](NC(=O)O[C@@H](CCCCNC(=O)c1ccc([18F])cc1)C(=O)O)C(=O)O
tissue uptake (mouse, PC-3 PIP/flu xenografts, spleen; 180 min): 0.13 ± 0.08 %ID/g

CC[C@H](C)[C@@H]1NC(=O)[C@H](CCCCN)NC(=O)[C@H](CCCNC(=N)N)NC(=O)[C@H](Cc2ccc(O)cc2)NC(=O)[C@H](CC(C)C)NC(=O)[C@@H]2CCCN2C(=O)[C@H](C)NC(=O)CNC(=O)CNC(=O)[C@H](CO)NC(=O)CNC(=O)CNC(=O)[C@H](CO)NC(=O)[C@H](CCC(=O)O)NC(=O)[C@H](CC(C)C)NC(=O)[C@H](CC(C)C)NC(=O)[C@H](CCCCN)NC(=O)[C@H](CCCCN)NC(=O)[C@H]([C@@H](C)CC)NC(=O)[C@H]([C@@H](C)CC)NC(=O)[C@H](CCCCN)NC(=O)[C@H](CCCNC(=N)N)NC(=O)[C@H](Cc2ccc(O)cc2)NC(=O)[C@H](CC(C)C)NC(=O)[C@@H]2CCCN2C(=O)CNC(=O)CNC(=O)[C@@H](NC(=O)CN)CSSC[C@@H](C(N)=O)NC(=O)[C@H](CC(C)C)NC(=O)[C@H](CCCCN)NC(=O)[C@H](CCCCN)NC(=O)[C@H]([C@@H](C)CC)NC1=O
HC10 (hemolysis; uninfected human erythrocytes; 1 h): 22.8 ± 1.9 µM

For quick reference, copied from above:
C[C@@H]1CC[C@H]2[C@@H](C)CO[C@@H]3O[C@@]4(C)CC[C@@H]1[C@]32OO4
stability accuracy (item: compound; rat, plasma; 50.0 ng/mL spiked, three freeze/thaw cycles): 112%

C=C1C(=O)O[C@@H]2C[C@H](C)[C@@H]3C[C@H](O[Si](C)(C)C(C)C)[C@H](O[Si](C)(C)C(C)C)[C@@]3(C)C[C@H]12
CC50 (propidium iodide flow cytometry; primary splenocytes, BALB/c mouse; 48 h, 10% fetal calf serum): 37.7 ± 0.5 mg/L (≈ 80.8 µM)

COc1ccc(C)cc1NC(=O)OC1CC2CCCC(C1)N2Cc1ccc(CC[18F])cc1 (centres unmarked)
tumour to tissue ratio (BALB/c mice, EMT6 tumour; 5 min; reference: tumour over blood): 0.82

N=C(N)NCc1ccc(C(=O)NCCCC[C@H](NC(=O)CCCCCCC(=O)NCCCC[C@H](NC(=O)N[C@@H](CCC(=O)O)C(=O)O)C(=O)O)C(=O)O)cc1[131I]
tissue uptake (SCID mouse, PC-3 xenografts, muscle; 21 h): 0.03 ± 0.02 %ID/g
